Assay results from different studies.
Each numbered part is a random draw from the data of one study; scales do not carry over between parts.

Block 1
Target: Interferon regulatory factor 7, full length, phosphomimetic (IRF7, Homo sapiens, UniProt Q92985, residues 1-503, S471D/S472D/S475D/S476D/S477D/S483D/S484D/S487D)
Technique: protein-binding microarray
Molecule type: double-stranded DNA, one strand shown
Sample: in vitro
Tested at: 2200 nM top
Notes: 60-bp whole probe
Added: salmon DNA 0.4 mg/ml
Baseline: random background probes
Reading: higher = stronger binding
Shared flanks, not repeated: GCCTAGCAC … GTCTTGATTCGCTTGACGCTGCTG
Target sequence (chain): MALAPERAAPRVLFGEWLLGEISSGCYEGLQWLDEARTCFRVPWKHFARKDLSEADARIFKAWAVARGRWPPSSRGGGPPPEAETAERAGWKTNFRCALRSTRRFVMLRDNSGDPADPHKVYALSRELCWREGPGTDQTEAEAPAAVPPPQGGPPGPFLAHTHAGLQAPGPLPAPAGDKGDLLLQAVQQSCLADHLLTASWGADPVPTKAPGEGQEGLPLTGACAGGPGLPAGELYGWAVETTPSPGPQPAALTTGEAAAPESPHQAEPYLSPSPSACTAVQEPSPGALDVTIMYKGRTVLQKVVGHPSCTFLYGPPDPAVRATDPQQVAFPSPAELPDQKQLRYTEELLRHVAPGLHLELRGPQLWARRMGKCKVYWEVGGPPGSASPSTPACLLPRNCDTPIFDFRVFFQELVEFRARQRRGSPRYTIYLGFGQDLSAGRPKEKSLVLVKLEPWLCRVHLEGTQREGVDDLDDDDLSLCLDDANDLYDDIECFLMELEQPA
Under “fitted relative affinity”, `GTTATCCTATATCTGAACCGGTGCTAG` is recorded as 1.28 z-score.
Under “fitted relative affinity”, `ATCTTAATAAGGTTTCCAATCGTGCTA` is recorded as 0.588 z-score.
`GAGGGACTGCTTTTCCTGACGTGCTAG`: “fitted relative affinity” 0.361 z-score.
`TTAGGTTACGGACTGGGTTAGTGCTAG`: “fitted relative affinity” -0.0419 z-score.
Under “fitted relative affinity”, `TTAGGTTGCCTTATCCTTTAGTGCTAG` is recorded as 0.743 z-score.
`TCATTTTTCCTAATTGAACTGTGCTAG` — result for “fitted relative affinity”: 2.1 z-score.
For `TTAGGACTGGGACAGGGTTAGTGCTAG`, “fitted relative affinity” read -0.862 z-score.
For `TTAGGTTTCCTTTCCCATTAGTGCTAG`, “fitted relative affinity” read 4.24 z-score.
`GACGGTTTCGATCTCGGGACGTGCTAG`: “fitted relative affinity” 6.1 z-score.
For `TTAGGACTGATACTGCTTTAGTGCTAG`, “fitted relative affinity” read -0.0665 z-score.
`TCAAACTTAGTTTTCAAACTGTGCTAG` — result for “fitted relative affinity”: -0.105 z-score.
For `GAGGGTTTCGACACTGGGGACGTGCTA`, “fitted relative affinity” read 0.962 z-score.
`GCCGGTTTCCTTATCCTGACGTGCTAG`: “fitted relative affinity” 3.95 z-score.
Under “fitted relative affinity”, `GACGCTATCCTACTGCTGACGTGCTAG` is recorded as 1.19 z-score.
`CACGGTATCGGTATCGGGACGTGCTAG`: “fitted relative affinity” 0.318 z-score.
`GACGGACTGGACACTGCGGACGTGCTA`: “fitted relative affinity” -0.336 z-score.
For `GACGGACTGGGGTATCGCGACGTGCTA`, “fitted relative affinity” read -0.684 z-score.
Under “fitted relative affinity”, `TTAGAACTGAGTATCGGTTAGTGCTAG` is recorded as -0.161 z-score.
Under “fitted relative affinity”, `ATGGCTTTGCCTTTTGCTTTGTGCTAG` is recorded as 0.932 z-score.
`TTAGATCTCAATTTCGATTAGTGCTAG` — result for “fitted relative affinity”: 2.48 z-score.
For `TTAGGATTGGGGTATCGGTTAGTGCTA`, “fitted relative affinity” read 0.132 z-score.

Block 2
Target: TAR DNA-binding protein 43, full length, His tag (TARDBP, Homo sapiens, UniProt Q13148, residues 1-414)
Technique: RNA Bind-n-Seq
Molecule type: RNA
Sample: in vitro
Tested at: 20 nM
Notes: 6-mer, flanks averaged, single round
Added: 150 mM KCl
Baseline: input library
Reading: higher = stronger binding
Under “6-mer enrichment (R)”, `CUGUUU` is recorded as 0.655.
For `GAUAUU`, “6-mer enrichment (R)” read 0.631.
`AGAUAA` — result for “6-mer enrichment (R)”: 0.657.
`CGCGCG` — result for “6-mer enrichment (R)”: 1.49.
`GACUUU`: “6-mer enrichment (R)” 0.621.
For `CAGCCU`, “6-mer enrichment (R)” read 0.651.
`GACAAC` — result for “6-mer enrichment (R)”: 0.725.
For `AGGGCG`, “6-mer enrichment (R)” read 4.73.
`GCUUUU` — result for “6-mer enrichment (R)”: 0.686.
`AUUUUU` — result for “6-mer enrichment (R)”: 0.781.
`UACUAA` — result for “6-mer enrichment (R)”: 0.641.
`AUCGCU`: “6-mer enrichment (R)” 0.569.
Under “6-mer enrichment (R)”, `GCAUAG` is recorded as 0.956.
`CACGAA`: “6-mer enrichment (R)” 0.718.
For `UCCUGU`, “6-mer enrichment (R)” read 0.616.
`ACUUGU`: “6-mer enrichment (R)” 0.615.
`UCGGCG` — result for “6-mer enrichment (R)”: 1.34.
For `AACAUC`, “6-mer enrichment (R)” read 0.582.
For `AGACUU`, “6-mer enrichment (R)” read 0.583.
`AAAGCC`: “6-mer enrichment (R)” 0.627.
`CGGCGC`: “6-mer enrichment (R)” 1.4.
`CCUUAG`: “6-mer enrichment (R)” 0.652.
`AGGUGC` — result for “6-mer enrichment (R)”: 1.33.
For `CAGCAG`, “6-mer enrichment (R)” read 0.973.
`UUAGAU`: “6-mer enrichment (R)” 0.59.

Block 3
Target: RNA binding protein fox-1 homolog 2, RRM domain, GST-SBP tag (RBFOX2, Homo sapiens, UniProt O43251-10, residues 100-194)
Technique: RNA Bind-n-Seq
Molecule type: RNA
Sample: in vitro
Tested at: 365 nM
Notes: natural RNA segment, single round, ends assumed
Baseline: no-protein control
Reading: higher = stronger binding
Construct (chain): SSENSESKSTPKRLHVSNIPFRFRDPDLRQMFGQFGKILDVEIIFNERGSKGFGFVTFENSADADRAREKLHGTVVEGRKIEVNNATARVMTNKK
Under “RBNS enrichment (R)”, `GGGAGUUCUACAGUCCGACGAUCUCUUUAUUCAGGGAGUGAGACAUGGACUAAUUGGUAUCGAUUCCCUGGAUAGCUCGCUUGGAUGAAUUGAUGGUGUUUAGCAGUUUUUAUAUACUUCCUCCGGGUCUCUAUGGAAUUCUCGGGUGCCAA` is recorded as 0.719.
`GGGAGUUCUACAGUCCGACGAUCCAGACUUUCUAAGUUAAAUUUUAAAAAUUUUGAUUGUUUGCCAUAUUGGGUGGGUUUACUCUUAGAAUCGCAUGCUGUAGAAAUGCUCAAAAGUGCAUAUGGGACUCAGUUGGAAUUCUCGGGUGCCAA`: “RBNS enrichment (R)” 4.09.
`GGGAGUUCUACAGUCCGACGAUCAAUGCAUACUGCUGGCCAAUCAGUGUCAUCUCCUGGGUAAAUUUUGAUGUCGCAUUAUAAAGACAUGCAUAAUUGAUGGUUUCUAGAUUAUCUAGUCCAAACAAUAGAGUUGGAAUUCUCGGGUGCCAA` — result for “RBNS enrichment (R)”: 0.538.
`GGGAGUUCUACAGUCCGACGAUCUUGCCUUCACCCAUAAGCCCCUCGCACUCUGGUGGCAGGUGCCUUGUCCUCAGGGCUACAGCAGUAGGGAGGUCAGUGCUUCGUGCCUCGAUUGAAGGUGACCUCUGCCCUGGAAUUCUCGGGUGCCAA` — result for “RBNS enrichment (R)”: 3.51.
Under “RBNS enrichment (R)”, `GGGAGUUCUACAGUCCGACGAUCAUGGAAGAAAAAUCUCAACCAAAGUUAUGCUCUUCCUGACAAGCUGACCCUUGAGUUAAUUUUAGCACAACUCAUUCUUCAGUGCCUCAUUAUGAAAGACAAAAAGCAUCUGGAAUUCUCGGGUGCCAA` is recorded as 0.817.
For `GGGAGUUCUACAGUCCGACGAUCCUAGAUUUUCCAGCUGACUUUGGUAUAAUAUAUAUUUAUCAGGAACUUCUCUCAGCAGAGAGUACCCAUUCUUCGAGUUCAAAGCACAAUUUUAAACAUGUAAAAUGGAUUGGAAUUCUCGGGUGCCAA`, “RBNS enrichment (R)” read 0.279.
Under “RBNS enrichment (R)”, `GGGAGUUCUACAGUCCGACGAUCUACCAAGUACUGGAGAAAAAGCAUCAAGUUCUUAGCCCUUGUAGCUUCUACCCUAGUUUCCCAUCCUCUCUCUGUGGAGGCCAAACCAACUCUUUGCCAGCAGCCACAACUGGAAUUCUCGGGUGCCAA` is recorded as 0.549.
Under “RBNS enrichment (R)”, `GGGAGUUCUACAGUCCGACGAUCAAUGUGAAUAGCAAAUUCUGGUAUAUCGUGACUAACGCUUAAGAAUGCCUGUCUUUGAGAGGAAGGUGUUAUAAUAUUAAUGAACAGUGCCAAAUACACUGUGCAUAUCUUGGAAUUCUCGGGUGCCAA` is recorded as 0.41.
Under “RBNS enrichment (R)”, `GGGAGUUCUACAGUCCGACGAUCUCGCCUAUAUCUGCUGCCCAGAGGCCUGUCUCGCACAGGGGUCUCGCCACUGCCAAAGACUCCCAGGAAGCCACUAGCAAAUGGAACUCUGUAACCCCAUCAUGACAAGAUGGAAUUCUCGGGUGCCAA` is recorded as 0.646.
Under “RBNS enrichment (R)”, `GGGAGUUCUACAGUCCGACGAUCAGGUACAUGUUAAACCUUCCUCUGCCUUCUCAGCCACAUGCUUUUGGCCAUAAAUACUCAAUCUACCAGUUGGAAAGGGUAUCUAUUUCAAGAUGGGGUGGCGUUUUUCCUGGAAUUCUCGGGUGCCAA` is recorded as 0.281.
`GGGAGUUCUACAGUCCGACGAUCGCAUGAGAUGAUAUUGUACUUGUAUAGGAUUCUAGCAAUUCAUAAUAAAUAUGUAAGACUAGGCUUUACUGUCUUAUGCUUAUGGACAUUGUAUAUUUGUAUUUUAUGACUGGAAUUCUCGGGUGCCAA` — result for “RBNS enrichment (R)”: 6.06.
`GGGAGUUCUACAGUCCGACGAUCUCACACUUGUUGAAAAGUCUGUGAAGAACAUAGUUAAAGAUCUCCAACUUUGGAAAAUAUACAUGAUGUGAAACUGGGGUGCUAUGUUAAAAAUAAAUGUAUGAUAACUAUGGAAUUCUCGGGUGCCAA` — result for “RBNS enrichment (R)”: 0.403.

Block 4
Target: Fragile X messenger ribonucleoprotein 1, C-terminal low-complexity region (Fmr1, Mus musculus, UniProt P35922)
Technique: RNA Bind-n-Seq
Molecule type: RNA
Sample: in vitro
Tested at: 200 nM
Notes: whole 134-nt RNA, ends assumed
Added: 150 mM LiCl
Baseline: input library
Reading: higher = stronger binding
Library: 7-deaza-guanosine replaces G
The log2 enrichment of `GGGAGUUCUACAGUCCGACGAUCCCUGUGCUACACAUCGUAUGUACCGAAUCGGGGUUUGGGGAAAAAGGGGUUUUUUUGGGGAAAGUAUUAUGUUACGCCGUUCGGAUCUGCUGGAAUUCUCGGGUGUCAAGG` is reported as -0.993.
With `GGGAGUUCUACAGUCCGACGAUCGUCCUGUGCUACACAUCGUAUGUACCGAAUCGGAAAAAGGUUUUUUUGGAAAAAAAGGAAAGUAUUAUGUUACGCCGUUCGGAUCUGCACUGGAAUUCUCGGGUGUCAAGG` the log2 enrichment was -2.26.
For `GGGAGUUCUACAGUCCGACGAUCCAAGUCCUGUGCUACACAUCGUAUGUACCGAAUCGGGGAGGGGUGGGGAAAGGGGAAAGUAUUAUGUUACGCCGUUCGGAUCUGCACUUCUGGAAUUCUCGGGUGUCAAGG`, the log2 enrichment was 0.186.
With `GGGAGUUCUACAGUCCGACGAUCAGUCCUGUGCUACACAUCGUAUGUACCGAAUCGGGGAGGGGAAAAAGGGGAAAGGGGAAAGUAUUAUGUUACGCCGUUCGGAUCUGCACUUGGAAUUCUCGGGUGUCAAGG` the log2 enrichment was 0.317.
With `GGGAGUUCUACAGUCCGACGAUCCACAGACAACACGCACCCACACAGACACAGAGGGAAGGGGUUGGGAUGGGCACAGGGUGCACAGCAGGGCGGGGUAGGACCCCAGCCCCUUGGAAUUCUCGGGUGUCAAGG` the log2 enrichment was 0.274.
`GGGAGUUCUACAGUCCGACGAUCCCUCAAGUCCUGUGCUACACAUCGUAUGUACCGAAUCGGAAGGAAGGGGAAGGAAAGUAUUAUGUUACGCCGUUCGGAUCUGCACUUCCAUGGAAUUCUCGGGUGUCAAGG` has a log2 enrichment of -1.03.
For `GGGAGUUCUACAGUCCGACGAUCUCAAGUCCUGUGCUACACAUCGUAUGUACCGAAUCGGCCCGGCCCGGGCCCGGGAAAGUAUUAUGUUACGCCGUUCGGAUCUGCACUUCCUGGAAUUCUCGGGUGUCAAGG`, the log2 enrichment was -1.27.
The log2 enrichment of `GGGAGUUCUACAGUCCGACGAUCUUGAUUGAUAUUACAGGCAAGAACCAGGAUGAAUGUGUGAUUGCUUUGCAUGACUGCAAUGGAGAUGUCAACAGAGCUAUCAAUGUUCUUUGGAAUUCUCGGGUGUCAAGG` is reported as -4.45.
`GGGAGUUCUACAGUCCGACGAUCUCCUCAAGUCCUGUGCUACACAUCGUAUGUACCGAAUCGGGAGGGGAGGAGGAAAGUAUUAUGUUACGCCGUUCGGAUCUGCACUUCCAGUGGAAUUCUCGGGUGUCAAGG` has a log2 enrichment of -1.1.
For `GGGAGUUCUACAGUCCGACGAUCUCCUGUGCUACACAUCGUAUGUACCGAAUCGGAAAAAAGGGGAAAAAAGGGGAAAAAAGGAAAGUAUUAUGUUACGCCGUUCGGAUCUGCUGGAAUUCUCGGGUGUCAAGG`, the log2 enrichment was -0.79.
`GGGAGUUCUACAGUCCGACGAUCACCAUGAAGGUGGGCAUCUUUGGGAAGUGGGGCAAGGGGGGGAUAGGGAGGGGGGUAACACUUUGGGAACAGGUGGUCCCAGGUCGUUUCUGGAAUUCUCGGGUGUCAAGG` gave a log2 enrichment of 1.38.
